Measurements collected from several papers.
Lines come from different studies, so protocols differ.
Medium: urine

Structure (SMILES)	system	conditions	scale	endpoint	value
Oc1ccc([C@@H](O)c2cc(-c3ncnc4cc(N5CCOCC5)ccc34)c(F)cc2Cl)nn1	healthy human volunteers	0-24 h, overall, geometric mean	baseline: dose	amount excreted in urine	4.95%
CC(C)n1c(C2CCNCC2)nc2c([N+](=O)[O-])c(Br)c(Br)cc21	human	oral, 75 mg, 0-24 h, median, single dose		amount excreted in urine	0.46 mg
C=CC(=O)Nc1cc(Nc2ncc(C(=O)OC(C)C)c(-c3cn(C)c4ccccc34)n2)c(OC)cc1N(C)CCN(C)C	healthy human	oral, 20 mg single dose, 0-48 h, arithmetic mean		amount excreted in urine	0.19 mg
CN[C@@H]1COc2c(S(=O)(=O)NC(=O)Nc3c4c(cc5c3CCC5)CCC4)cnn2C1	human	oral, 900 mg, 0-48 h		amount excreted in urine (0-48 h)	163 mg
CC(=O)N(C)[C@H]1CCN(C(=O)c2cnc3c(c2)C[C@](C)(c2ccc(F)cc2)N3)C1	male humans	oral, 60 mg once daily, multiple dosing, geometric mean		amount excreted in urine (0-48 h, steady state)	86900 nmol
CC(C)(Sc1ccncc1-c1ccc(C#N)c2ccccc12)C(=O)O	human	oral, 10 mg, with: febuxostat 20 mg		amount excreted in urine (0-24 h)	166 µg
NCCONC(=O)[C@@H]1CC[C@@H]2CN1C(=O)N2OS(=O)(=O)O	human male	intravenous infusion, 1 g single dose		amount excreted in urine (0-24 h)	849000 µg
Cn1cc(-c2cn3nccc3c(-c3cnn([C@]4(CC#N)C[C@@H](C#N)C4)c3)n2)cn1	healthy humans	oral, 400 mg once daily, day 10, Japanese cohort, dosing interval		amount excreted unchanged in urine	2.9 mg

For quick reference, copied from above:
Structure (SMILES)	system	conditions	scale	endpoint	value
CC(=O)N(C)[C@H]1CCN(C(=O)c2cnc3c(c2)C[C@](C)(c2ccc(F)cc2)N3)C1	male humans	oral, 60 mg once daily, multiple dosing, geometric mean		amount excreted in urine (0-48 h, steady state)	86900 nmol
